Experimental data gathered from unrelated publications.
A part holds a random share of what one study measured. Positions count from the first letter of the parent shown.

Set 1
Organism: Saccharomyces cerevisiae
Observed: binding
Technique: yeast competitive growth sequencing
Form: peptide
Strain: cyclin B3-Cln2 fusion strain
Notes: peptide tiling library
Reading: direction not given
Sequence	enrichment score
KVKRRLDLDIDGLQKE	-1.08
LRRQLSFSED	-0.384
RRVLCFDS	-0.729
LRRKLFLDGNGSIS	-0.847
PQWPCGKHKRVLIFAS	-1.42

Set 2
Target: RING finger protein unkempt homolog, zinc fingers 1-6, GST-SBP tag (UNK, Homo sapiens, UniProt Q9C0B0, residues 30-357)
UniProt Q9C0B0, sequence (30-357, looked up): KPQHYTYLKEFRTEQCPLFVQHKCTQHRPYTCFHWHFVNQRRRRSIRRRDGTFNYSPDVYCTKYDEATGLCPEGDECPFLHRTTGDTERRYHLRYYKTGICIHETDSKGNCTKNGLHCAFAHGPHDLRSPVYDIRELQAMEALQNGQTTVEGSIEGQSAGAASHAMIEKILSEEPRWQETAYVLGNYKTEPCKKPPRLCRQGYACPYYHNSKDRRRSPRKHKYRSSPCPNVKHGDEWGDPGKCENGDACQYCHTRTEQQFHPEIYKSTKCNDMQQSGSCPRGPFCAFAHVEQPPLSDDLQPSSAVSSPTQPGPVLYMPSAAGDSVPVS
Technique: RNA Bind-n-Seq
Form: RNA
Sample: in vitro
Concentration: not given
Notes: RNA with constant flanks, human and mouse sites, ends assumed
Reference: input RNA pool
Reading: higher = stronger binding
All sequences stand within: GGGAGUUCUACAGUCCGACGAUC … CAACAGAGGAUUGAGCAUCA
Oligonucleotide	bound/input enrichment
AGCGGCUGUACCAAGUGGUGGCGCUUUGCCGAGUUUCAGUACCUGCAGCCGGGACCCCCCCGGCGGCUUCAGACAGUGGUGGUGUACCUGCCGGAUGUCUGGACCAUCAUGCCUACUUUG	0.148 ratio
AGUGGCCUCACUGAUGAGACCGCUUUCAGCUGCUGCUCCGAUCCAGACCCUAGCACCAAGGAUUUUCUACUGCAGCAAACGAUGCUAAGAAUUAAGGAUCCUAAGAAGUCCCUGGAUUUU	0.126 ratio
GUUCCGGAAAUCAUGGAUCGGAUCUACAAAAAUGUCAUGAAUAAAGUGAAUGAAAUGAGUGCUUUUCAACGAAACUUGUUUAUUUUGGCAUAUAAUUAUAAGAUGGAACAGAUUUCAAAA	0.127 ratio
UUAAAAUAGAUGAUUAUAACGGGGCAGAGAACUUUCUUUUCUCUGCAAGAAUGUUACAUAUUGUAUAGAUAAAUGAGUGACAUUUCAUACCAUGUAUAUAUAGAGAUGUUCUAUAAGUGU	1.53 ratio
GAAGCAGGAGAGGAAGAGGAAAAGGAAAUAGCGAUUGUUCAUAGUGAUGCAGAGAAAGAACAGGAGGAGGAAGAACAAAAACAGGAAAUGGAGGUUAAGAUGGAGGAGGAAACUGAGGUA	1.51 ratio
GGCUCCAUUGCCUUGAAGAAAGUGAAAUUCCAAGCUAAGCUAGAACACGAGUACAUCCAGAACUUCAAAAUACUACAAGCAGGUUUUAAGAGAAUGGGUGUUGACAAAAUAAUUCCUGUG	0.254 ratio
CGGCGCUACACUAGAGCAGAGUACGAGUCUGAGGCGGAGGGAGUAAUGGCAGGACAAGCGUUUAGAAAGUUUCUUCCACUCUUUGACCGAGUAUUGGUUGAAAGGAGUGCUGCUGAAACU	0.415 ratio
AAGCUGGCUGUUCAGAUUGGCAAAGCAGGUCUGCUGAUGUCUGCCAUCACAGUUAUCAUCCUAGUGUUGUAUUUUGUGAUCGAUACCUUCUGGGUUCAGAAAAGACCAUGGCUUGCAGAG	0.379 ratio

Set 3
Target: ABI1, truncated, D143A, DHFR fusion (Arabidopsis thaliana)
Technique: DHFR PCA, deep sequencing
Sample: yeast
Notes: methotrexate growth selection, single substitutions
With: (+)-ABA 58 µM
Reference: wild-type fitted maximum
Reading: higher = stronger binding
Starting sequence: PYL1, truncated, DHFR fusion (Arabidopsis thaliana); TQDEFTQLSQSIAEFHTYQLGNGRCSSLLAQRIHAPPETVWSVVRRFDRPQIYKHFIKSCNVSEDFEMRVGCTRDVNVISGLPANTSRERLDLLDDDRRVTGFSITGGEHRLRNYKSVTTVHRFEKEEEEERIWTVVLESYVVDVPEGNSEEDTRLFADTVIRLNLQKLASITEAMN
Substitution	relative binding score [%]
I105H	-9.17
N149L	25.4
N77M	85.4
L93P	13
A13G	85.6
A30V	88
E64L	76.5
E127F	95.7

Mixed results
Starting sequence: PafA, mature enzyme, eGFP fusion (Elizabethkingia meningoseptica, UniProt Q9KJX5); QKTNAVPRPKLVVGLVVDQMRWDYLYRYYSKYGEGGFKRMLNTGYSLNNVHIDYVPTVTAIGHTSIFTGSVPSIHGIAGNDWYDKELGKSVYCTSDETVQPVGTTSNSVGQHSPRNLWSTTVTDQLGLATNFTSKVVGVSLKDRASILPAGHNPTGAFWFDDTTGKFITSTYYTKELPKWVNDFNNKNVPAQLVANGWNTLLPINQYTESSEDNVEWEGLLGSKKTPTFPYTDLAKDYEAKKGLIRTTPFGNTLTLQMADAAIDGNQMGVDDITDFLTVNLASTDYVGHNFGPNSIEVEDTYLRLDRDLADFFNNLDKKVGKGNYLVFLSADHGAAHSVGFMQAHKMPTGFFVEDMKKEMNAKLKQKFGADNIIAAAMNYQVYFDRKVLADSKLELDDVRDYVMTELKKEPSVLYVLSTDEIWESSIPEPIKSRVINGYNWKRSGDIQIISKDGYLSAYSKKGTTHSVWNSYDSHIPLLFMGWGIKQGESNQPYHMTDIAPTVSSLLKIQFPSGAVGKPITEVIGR
Substitution	target	test	test system	conditions	scale	quantity	value
D53V	tungstate, free oxyanion	microfluidic competitive inhibition	in vitro, cell-free expressed	not given, derived from inhibition constants, unchanged parent 2230 nM	lower = stronger binding	oxyanion analog dissociation constant	1180 nM
